# Experimental data gathered from unrelated publications.
# Each numbered part is a random draw from the data of one study; scales do not carry over between parts. Values joined by “and” are separate records of one study, mostly repeats; a detail may differ.
# Sequence of UniProt P21918 (whole entry, looked up): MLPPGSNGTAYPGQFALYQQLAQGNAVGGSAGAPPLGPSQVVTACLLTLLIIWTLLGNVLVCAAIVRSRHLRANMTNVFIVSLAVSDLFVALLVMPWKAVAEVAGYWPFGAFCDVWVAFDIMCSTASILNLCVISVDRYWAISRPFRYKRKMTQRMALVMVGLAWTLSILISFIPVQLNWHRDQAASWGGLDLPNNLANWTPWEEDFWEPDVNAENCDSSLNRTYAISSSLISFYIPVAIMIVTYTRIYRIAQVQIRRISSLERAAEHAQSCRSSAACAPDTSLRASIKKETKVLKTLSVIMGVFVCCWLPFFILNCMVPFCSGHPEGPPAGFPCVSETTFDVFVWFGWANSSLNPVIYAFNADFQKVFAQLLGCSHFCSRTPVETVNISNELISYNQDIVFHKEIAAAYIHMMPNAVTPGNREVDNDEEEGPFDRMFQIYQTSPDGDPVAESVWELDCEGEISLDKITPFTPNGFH
# Sequence of UniProt P35372 (whole entry, looked up): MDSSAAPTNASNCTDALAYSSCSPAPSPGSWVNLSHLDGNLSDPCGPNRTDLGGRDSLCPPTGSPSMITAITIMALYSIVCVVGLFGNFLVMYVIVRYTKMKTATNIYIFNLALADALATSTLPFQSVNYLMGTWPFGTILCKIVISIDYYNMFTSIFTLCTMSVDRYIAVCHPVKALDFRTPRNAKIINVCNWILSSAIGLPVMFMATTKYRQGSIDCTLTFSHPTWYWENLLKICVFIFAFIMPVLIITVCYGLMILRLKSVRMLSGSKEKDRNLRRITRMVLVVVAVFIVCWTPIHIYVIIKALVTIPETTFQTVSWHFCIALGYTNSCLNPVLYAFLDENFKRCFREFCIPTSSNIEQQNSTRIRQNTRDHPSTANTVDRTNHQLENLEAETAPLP
# Sequence of UniProt P31645 (whole entry, looked up): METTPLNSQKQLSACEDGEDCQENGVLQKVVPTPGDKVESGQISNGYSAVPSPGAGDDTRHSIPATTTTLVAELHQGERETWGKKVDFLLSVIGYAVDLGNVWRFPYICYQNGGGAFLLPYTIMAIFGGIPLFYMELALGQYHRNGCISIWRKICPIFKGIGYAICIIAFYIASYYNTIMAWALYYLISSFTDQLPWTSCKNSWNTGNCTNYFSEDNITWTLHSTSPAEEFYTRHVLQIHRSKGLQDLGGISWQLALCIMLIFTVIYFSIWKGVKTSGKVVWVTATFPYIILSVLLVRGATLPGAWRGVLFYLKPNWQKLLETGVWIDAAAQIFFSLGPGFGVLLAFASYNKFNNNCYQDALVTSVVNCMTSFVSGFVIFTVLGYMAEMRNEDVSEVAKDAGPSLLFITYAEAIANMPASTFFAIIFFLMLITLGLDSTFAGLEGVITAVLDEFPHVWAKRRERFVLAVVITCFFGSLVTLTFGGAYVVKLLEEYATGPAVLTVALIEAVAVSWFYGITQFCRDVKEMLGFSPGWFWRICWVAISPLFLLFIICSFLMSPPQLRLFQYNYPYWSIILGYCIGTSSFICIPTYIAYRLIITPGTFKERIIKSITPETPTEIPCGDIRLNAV
# Sequence of UniProt P41143 (whole entry, looked up): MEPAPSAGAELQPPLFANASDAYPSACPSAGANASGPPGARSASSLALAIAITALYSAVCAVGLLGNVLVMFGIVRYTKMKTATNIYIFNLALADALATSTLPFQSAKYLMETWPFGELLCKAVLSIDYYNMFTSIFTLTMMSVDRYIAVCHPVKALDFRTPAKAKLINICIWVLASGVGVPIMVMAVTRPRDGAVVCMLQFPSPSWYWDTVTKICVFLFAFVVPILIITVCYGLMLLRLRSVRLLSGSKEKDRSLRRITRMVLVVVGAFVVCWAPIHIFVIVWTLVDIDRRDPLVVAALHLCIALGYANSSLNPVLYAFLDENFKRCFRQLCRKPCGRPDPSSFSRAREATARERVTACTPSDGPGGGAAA

# Set 1 — cell line: mouse MPNST tumor cells; method: high-content nuclear imaging; item: cell number; concentration: 10 µM; time: 12 h; setting: mean of 2 replicates; reference: plate mean; reading: higher = more cells
SMILES,nuclei count
CC(C)(C)NCC(O)c1ccccc1Cl (centres unmarked),1.03 z-score
CC(C)[N+](C)(CCC(C(N)=O)(c1ccccc1)c1ccccc1)C(C)C,2.33 z-score
Cc1cc(C(=O)CN2CCCC2)c(C)n1-c1ccc(F)cc1,1.89 z-score
CCN(C)C(=O)Oc1cccc([C@H](C)N(C)C)c1,1.03 z-score and 1.16 z-score
CC1=NN=C(c2ccc(N)cc2)c2cc3c(cc2C1)OCO3,1.11 z-score
O=C1CN(Cc2ccc(-c3ccc(F)c(CN4CCS(=O)(=O)CC4)n3)cc2)C(=O)N1C1CC1,0.528 z-score

# Set 2 — effect on: enzyme activity; mode: inhibitor; concentration: 77 µM; reference: untreated
# Target: DNA polymerase theta, ATPase domain (POLQ, Homo sapiens, UniProt O75417)
# Sequence of UniProt O75417 (whole entry, unmodified, looked up): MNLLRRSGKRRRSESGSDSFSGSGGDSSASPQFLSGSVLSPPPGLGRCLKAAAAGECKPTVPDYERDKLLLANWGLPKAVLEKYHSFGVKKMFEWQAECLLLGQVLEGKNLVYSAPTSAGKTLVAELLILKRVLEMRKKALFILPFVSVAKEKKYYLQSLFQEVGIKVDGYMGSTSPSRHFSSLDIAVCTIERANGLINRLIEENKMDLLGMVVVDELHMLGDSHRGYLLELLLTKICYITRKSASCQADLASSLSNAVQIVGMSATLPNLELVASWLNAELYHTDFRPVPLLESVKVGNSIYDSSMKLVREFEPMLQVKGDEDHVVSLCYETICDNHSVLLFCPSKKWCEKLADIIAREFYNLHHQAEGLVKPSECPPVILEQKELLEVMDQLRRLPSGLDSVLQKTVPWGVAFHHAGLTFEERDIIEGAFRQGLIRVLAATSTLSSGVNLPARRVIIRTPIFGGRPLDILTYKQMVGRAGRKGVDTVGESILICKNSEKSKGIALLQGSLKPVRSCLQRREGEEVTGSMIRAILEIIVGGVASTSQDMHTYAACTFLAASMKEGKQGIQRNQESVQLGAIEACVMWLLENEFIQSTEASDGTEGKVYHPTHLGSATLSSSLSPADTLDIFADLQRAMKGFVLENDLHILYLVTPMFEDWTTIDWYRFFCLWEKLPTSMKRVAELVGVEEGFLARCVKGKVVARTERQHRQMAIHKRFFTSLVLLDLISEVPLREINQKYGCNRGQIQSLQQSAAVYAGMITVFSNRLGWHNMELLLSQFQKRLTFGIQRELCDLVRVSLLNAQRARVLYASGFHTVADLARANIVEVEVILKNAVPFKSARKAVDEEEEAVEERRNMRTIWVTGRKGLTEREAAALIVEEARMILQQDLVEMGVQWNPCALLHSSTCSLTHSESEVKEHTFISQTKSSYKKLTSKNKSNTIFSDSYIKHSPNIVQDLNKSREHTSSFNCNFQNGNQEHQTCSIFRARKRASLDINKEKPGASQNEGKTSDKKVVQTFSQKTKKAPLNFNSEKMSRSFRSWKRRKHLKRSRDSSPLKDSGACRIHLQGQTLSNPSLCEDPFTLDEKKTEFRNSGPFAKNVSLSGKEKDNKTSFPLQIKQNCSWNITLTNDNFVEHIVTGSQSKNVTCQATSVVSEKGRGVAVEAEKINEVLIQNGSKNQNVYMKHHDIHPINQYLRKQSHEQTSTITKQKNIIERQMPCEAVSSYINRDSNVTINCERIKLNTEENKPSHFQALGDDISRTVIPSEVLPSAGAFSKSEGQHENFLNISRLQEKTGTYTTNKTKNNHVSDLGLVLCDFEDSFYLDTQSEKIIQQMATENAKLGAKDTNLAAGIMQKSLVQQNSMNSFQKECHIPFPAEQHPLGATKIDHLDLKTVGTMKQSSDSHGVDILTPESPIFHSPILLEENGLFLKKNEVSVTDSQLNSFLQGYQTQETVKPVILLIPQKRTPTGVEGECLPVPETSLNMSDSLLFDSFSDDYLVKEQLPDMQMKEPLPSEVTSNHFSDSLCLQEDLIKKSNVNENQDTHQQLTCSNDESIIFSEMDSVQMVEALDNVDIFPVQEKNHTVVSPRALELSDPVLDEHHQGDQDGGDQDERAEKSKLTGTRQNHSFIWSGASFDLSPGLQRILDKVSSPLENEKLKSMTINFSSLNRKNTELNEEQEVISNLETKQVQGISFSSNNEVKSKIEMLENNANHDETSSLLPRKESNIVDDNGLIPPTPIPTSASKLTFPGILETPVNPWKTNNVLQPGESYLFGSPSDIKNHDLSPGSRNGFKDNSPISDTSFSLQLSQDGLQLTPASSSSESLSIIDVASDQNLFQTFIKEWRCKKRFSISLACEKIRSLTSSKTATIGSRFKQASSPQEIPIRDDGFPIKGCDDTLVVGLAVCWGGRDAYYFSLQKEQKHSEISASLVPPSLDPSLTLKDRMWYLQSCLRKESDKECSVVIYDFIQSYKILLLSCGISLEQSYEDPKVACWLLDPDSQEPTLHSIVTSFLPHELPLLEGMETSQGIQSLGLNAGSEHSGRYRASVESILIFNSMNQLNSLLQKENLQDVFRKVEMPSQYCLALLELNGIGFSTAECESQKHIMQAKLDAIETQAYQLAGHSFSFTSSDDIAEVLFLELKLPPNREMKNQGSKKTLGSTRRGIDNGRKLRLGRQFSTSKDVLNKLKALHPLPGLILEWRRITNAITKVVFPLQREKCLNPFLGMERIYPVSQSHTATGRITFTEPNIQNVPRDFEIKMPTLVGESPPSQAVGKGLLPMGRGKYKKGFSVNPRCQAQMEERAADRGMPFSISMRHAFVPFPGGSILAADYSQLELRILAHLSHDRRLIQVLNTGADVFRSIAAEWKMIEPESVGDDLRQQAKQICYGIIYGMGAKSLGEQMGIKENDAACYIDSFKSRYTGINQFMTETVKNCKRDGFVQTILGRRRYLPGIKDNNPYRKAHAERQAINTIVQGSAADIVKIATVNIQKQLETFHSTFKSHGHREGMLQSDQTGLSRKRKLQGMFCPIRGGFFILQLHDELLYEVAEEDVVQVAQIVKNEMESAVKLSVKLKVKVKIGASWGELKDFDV
Compound,remaining activity
CCNCC(O)c1cccc(O)c1 (centres unmarked),103%
C/C(=C\c1csc(C)n1)[C@@H]1C[C@@H]2O[C@]2(C)CCC[C@H](C)[C@H](O)[C@@H](C)C(=O)C(C)(C)[C@@H](O)CC(=O)O1,100%
CCCC(C)(COC(N)=O)COC(=O)NC(C)C (centres unmarked),98.8%
C[C@]1(C(=O)O)[C@@H]2CC[C@@H](O2)[C@@]1(C)C(=O)O,87.5%
Cc1cc(O)ccc1Cl,105%

# Set 3 — concentration: 10 µM
# Compound: CC(=O)C1=C(C)N(c2cccc(C(F)(F)F)c2)C(=O)N[C@H]1c1ccc(C#N)nc1
target,test,inhibition [%]
"Sodium-dependent serotonin transporter (SLC6A4, Homo sapiens, UniProt P31645)",cell-free assay,2.85
"Delta-type opioid receptor (OPRD1, Homo sapiens, UniProt P41143)",ligand displacement,4.95
"Mu-type opioid receptor (OPRM1, Homo sapiens, UniProt P35372)",ligand displacement,2.02
"D(1B) dopamine receptor (DRD5, Homo sapiens, UniProt P21918)",ligand displacement,5.12
"5-hydroxytryptamine receptor 1A (HTR1A, Homo sapiens, UniProt P08908)",ligand displacement,3.63

# Set 4 — effect on: enzyme activity; mode: inhibitor; concentration: 10 µM
# Target: Calcium/calmodulin-dependent protein kinase type II subunit alpha (CAMK2A, Homo sapiens, UniProt Q9UQM7)
# Sequence of UniProt Q9UQM7 (whole entry, looked up): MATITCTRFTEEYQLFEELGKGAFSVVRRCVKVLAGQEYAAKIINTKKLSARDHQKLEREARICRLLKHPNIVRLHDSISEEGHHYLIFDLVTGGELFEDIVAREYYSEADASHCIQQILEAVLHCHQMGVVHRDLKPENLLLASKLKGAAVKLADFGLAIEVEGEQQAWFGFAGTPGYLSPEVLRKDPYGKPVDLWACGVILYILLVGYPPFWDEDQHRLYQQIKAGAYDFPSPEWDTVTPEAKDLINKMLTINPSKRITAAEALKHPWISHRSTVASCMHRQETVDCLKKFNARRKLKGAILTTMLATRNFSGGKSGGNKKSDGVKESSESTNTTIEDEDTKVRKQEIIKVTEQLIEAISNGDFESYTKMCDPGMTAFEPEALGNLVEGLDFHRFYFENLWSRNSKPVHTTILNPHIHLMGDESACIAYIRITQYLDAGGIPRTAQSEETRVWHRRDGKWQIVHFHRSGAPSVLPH
Compound,inhibition [%]
C[C@@]12C[C@@H](c3ccoc3)OC(=O)[C@@H]1CC[C@]1(C)[C@H]2[C@@H]2C=C[C@@]1(O)C(=O)O2,-3
C/C=C1/CN2[C@H]3Cc4c([nH]c5ccccc45)[C@]2(O)C[C@@H]1[C@@]3(CO)C(=O)OC,19
CC(C)=CCC[C@H](C(=O)O)[C@@H]1CC[C@]2(C)C3=C(CC[C@@]12C)[C@@]1(C)CCC(=O)C(C)(C)[C@@H]1CC3,-37
CO[C@H]1CC=C2CCN3CCC4=C(CC(=O)OC4)[C@]23C1,-11

# Some of these lines once more (set 3):
target,test,inhibition [%]
"Sodium-dependent serotonin transporter (SLC6A4, Homo sapiens, UniProt P31645)",cell-free assay,2.85
"D(1B) dopamine receptor (DRD5, Homo sapiens, UniProt P21918)",ligand displacement,5.12
"5-hydroxytryptamine receptor 1A (HTR1A, Homo sapiens, UniProt P08908)",ligand displacement,3.63
